Results pooled from the literature.
Every numbered part comes from another study and shows a few of its results, in no order.

Study 1 — method: RNA Bind-n-Seq; molecule type: RNA; medium: in vitro; tested at: 100 nM; reference: input RNA pool; direction: higher = stronger binding
Target: RING finger protein unkempt homolog, zinc fingers 1-6, SBP tag (UNK, Homo sapiens, UniProt Q9C0B0, residues 30-357)
Chain of UniProt Q9C0B0 (30-357, looked up): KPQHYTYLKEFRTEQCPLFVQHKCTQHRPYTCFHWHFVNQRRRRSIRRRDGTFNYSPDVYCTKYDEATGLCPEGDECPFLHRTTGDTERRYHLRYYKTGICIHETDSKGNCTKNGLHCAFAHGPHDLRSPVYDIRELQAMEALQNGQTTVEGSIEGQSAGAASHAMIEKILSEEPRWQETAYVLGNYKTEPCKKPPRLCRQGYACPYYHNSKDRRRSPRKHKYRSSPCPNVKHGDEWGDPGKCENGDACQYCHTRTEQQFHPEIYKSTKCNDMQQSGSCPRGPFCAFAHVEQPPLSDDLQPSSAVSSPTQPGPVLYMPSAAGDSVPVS
Notes: RNA with constant flanks, vertebrate orthologous sites, ends assumed
Constant ends, left off below: GGGAGUUCUACAGUCCGACGAUC … CAACAGAGGAUUGAGCAUCA
Strand	bound/input enrichment
AAUCAAUAGAACUACAUAAUACUAAAGUUGCAGUUGAAAGGAUAUCCAAGUAUGUGUUCGUAGUUACUAAAAGAAGUAUAGCUGUUAUUGCCUUGUAUUUAUAGCCCUUGUUUCAGGUCU	0.916 ratio
UCCAGGCACAACUGACUGGUUCACAGCAUUCCUUACACACUUUUUUAUCAAGUGCAAGUGGAAGUGAUUUUCAGGAUACAUCUCGGCAGUCGCCUCUGUCUUGUAGCCCAGUUGGCGAUG	0.503 ratio
CGUCUGCCUCAUUCUAAAAUUUACACAGUAGACCAUUUGUCAUUCAUGCUGUCCCACAAAUAGUUUUUGUUUACGAUUUAUGACAGGUUUAUGUUACUUCUAUUUGGAUUUCUAUAUUUC	1.08 ratio
AUAUUGUAUGUAGAGAAAAAUUUUCAUUGACCCUAUUGUGAAAUUCCCUAGCAAUUUAUUUAGAAUCUUAAUUUUUCUAAUUCAAGCUCACUGUAUUAGUCAUUUUUAGCCCAUAAUUAA	3.59 ratio
GCACAUGCCGCUAUUACCAAAAGCAGACUGCCACUUUUCAAAUUUCAUUCAGUCAUUUUAGUGUUUCCUAUUCCCUACCCUUCCCACAACUUUCAAUGAUGAAAUAUCCUCAGUUCUCUU	2.42 ratio

Study 2 — method: protein-binding microarray; molecule type: double-stranded DNA, one strand shown; medium: in vitro; tested at: 2200 nM top; notes: 60-bp whole probe; together with: salmon DNA 0.4 mg/ml; reference: random background probes; direction: higher = stronger binding; constant ends, left off below: GCCTAGCAC … GTCTTGATTCGCTTGACGCTGCTG
Target: Interferon regulatory factor 7, full length, phosphomimetic (IRF7, Homo sapiens, UniProt Q92985, residues 1-503, S471D/S472D/S475D/S476D/S477D/S483D/S484D/S487D)
Chain of UniProt Q92985 (whole entry, unmodified, looked up): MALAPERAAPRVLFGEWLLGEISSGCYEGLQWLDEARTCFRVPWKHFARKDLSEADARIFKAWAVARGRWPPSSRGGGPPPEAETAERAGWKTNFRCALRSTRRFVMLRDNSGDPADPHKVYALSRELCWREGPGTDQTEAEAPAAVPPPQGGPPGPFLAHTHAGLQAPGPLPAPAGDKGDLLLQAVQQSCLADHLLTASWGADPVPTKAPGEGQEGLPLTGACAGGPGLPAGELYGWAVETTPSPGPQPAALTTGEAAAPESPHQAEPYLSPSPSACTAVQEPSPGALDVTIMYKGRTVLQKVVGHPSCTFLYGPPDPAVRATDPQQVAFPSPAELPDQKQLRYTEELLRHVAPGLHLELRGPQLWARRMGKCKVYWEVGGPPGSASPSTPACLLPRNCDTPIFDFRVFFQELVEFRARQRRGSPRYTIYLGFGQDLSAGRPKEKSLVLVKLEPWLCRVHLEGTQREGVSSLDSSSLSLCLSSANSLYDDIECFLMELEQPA
Strand	fitted relative affinity [z-score]
GACGGTATCGGGTTTCGCGACGTGCTA	0.923
GAAGGACTGCTACTGCTGACGTGCTAG	-0.494
TTAGGTATCGACTTTAGGTTAGTGCTA	0.571
GACGACCTGAGACTGGAGACGTGCTAG	-0.163
GACAGTTCCCTTTTCCTGACGTGCTAG	3.02
TTAGAACTGGGAACTGGATTAGTGCTA	-0.79
TCAGTTCTTATCCTTCCCACTGTGCTA	2.46
GCCGGTATCGGGACTGGGGACGTGCTA	-0.31
AGAGCAGACCCAGAGTGGCAGTGCTAG	-0.733
AGTGTTTGCCCTATTTAAAAGTGCTAG	1.07
GACGGTTTCGGTATCGGGATGTGCTAG	7.93

Study 3 — method: RNA Bind-n-Seq; molecule type: RNA; medium: in vitro; tested at: 365 nM; reference: no-protein control; direction: higher = stronger binding
Target: RNA binding protein fox-1 homolog 2, RRM domain, GST-SBP tag (RBFOX2, Homo sapiens, UniProt O43251-10, residues 100-194)
Notes: natural RNA segment, single round, ends assumed
Constant ends, left off below: GGGAGUUCUACAGUCCGACGAUC … UGGAAUUCUCGGGUGCCAA
Construct (chain): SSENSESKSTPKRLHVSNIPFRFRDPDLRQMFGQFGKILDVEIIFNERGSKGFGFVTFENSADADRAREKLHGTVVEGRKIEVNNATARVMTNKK
Strand	RBNS enrichment (R)
UGUGGAGUGUAUUAGCAUUCAUCUCUCAUAGACAUCAUGUCACAAAAGACAAUGUUAGUAAACUACAGGGAAGCACUGGAAGGGUAAAGCUCAGGUUAAUACAAGCUGAU	0.258
CCUCACAGUUGAAAAUGUUCGGUCAUGAUUGCUUUUGAAACCAAAGGGGAAGGUACCGAUAUCAUUGAGCUAUUUAAAGUUGCCAGUUUGGGCUCCAGUAAUGCUUUCUG	0.442
GCCCUCAGAGUGCUCAUAUGGGGAGGGGGAUAUCUACUGUGGCUUCCAAAAGUCCCCACUAGUUGGUGUACCUGUCUAUUUCUCUGGAUACUGCUAGCCAAAGGGCUCGG	2.73
GGGGAAAAACCGUAUUUUUUUCUUGUCCAAUUAUUUCUAAAGACACACUACAUAGAAAGAGGCCCUAUAAACUCAAAAAGUCAUUGGGAAACUUAAAGUCUAUUCUACUU	0.37
CUAAGCAAAUGUACCACCAAUGAGCCAGGUUCCUAGCCUUCCUUUUGGAAGCUCAGUUCUUGAGUUGUCAGAGGGCCUCAUUGCCGUCCUCCUCUGAGAGCAGUGAUGCA	0.323
GCGCAUCGGGGAGGGGUGCUCUGAAGGCCAGGCACGGCCACCACACGACGCUGUUCUUAGUUCACUAAUGUUAGCCUUAUUUAGGACAAAGUCAGCCAGACACCUUGUAC	0.426
UGACACUGACUUGUGACAUAGGGACAUACCAGCCCCCUCCAGGGCUUUGGCCACUUGAAGUUCCUGUUAGUGAGGCUCCAAGGAUCUACCAAGGUGCUAUGGCGCAAAGG	0.225
CUCCUCUUAACUCCUGCUGCUGUCCAUGGGGUUUCCAGAGCCUUCACCUACAGCUCAGUGGGGUUUCCAUUCACGGACUUGCUGUUCCUGUGGGCCAGUGUCGUGUGGCC	0.358
CAUUACCCAUCUACUGUCGCAUGGUAGGAUAGCUUUUUGUCUCUGAAUAUGUGAAUAACUUGACUUGCGUUGAUCUUUUUACAUAUUUAAUAAAAAAACUAUACGUUAAA	0.614
UUCUGGAUUCAGCCACUAAGGACAUCUGUGGUACAAGGUGCACCUUUGCAAAUGUGUAUGAUGCCAGUUGUUUGGACUCUUGGAAAACACCACUGGAGGGCUUUGCUCCA	0.511

Single results of other studies
Substance	target	test	test system	conditions	how to read	endpoint	result
PhoQ, residues 284 288 289 292 302 303 HSYLQF	PhoP, residues 12 14 15 18 19 LHHVQ (Escherichia coli, UniProt P23836)	Sort-seq, refers to: YFP reporter	E. coli	PhoQ-PhoP variant library, together with: 10 µM Mg2+	reference: high Mg2+ state, higher = stronger signaling	fold induction	10.5
